Measured values collected from several papers.
Parts stem from different laboratories: compare values within a part only. Positions count from the first letter of the parent shown.

Set 1 — method: RNA Bind-n-Seq; molecule type: RNA; matrix: in vitro; tested at: 365 nM; baseline: no-protein control; direction: higher = stronger binding
Target: RNA binding protein fox-1 homolog 2, RRM domain, GST-SBP tag (RBFOX2, Homo sapiens, UniProt O43251-10, residues 100-194)
Notes: natural RNA segment, single round, ends assumed
All sequences stand within: GGGAGUUCUACAGUCCGACGAUC … UGGAAUUCUCGGGUGCCAA
| Oligonucleotide | RBNS enrichment (R) |
| --- | --- |
| AAUAGUCUUUCCUGUACUUACCAGAUUUCAAGUAUUCAUAACUUGACUCCCUAAGUGUACAAGUUGGGAAUAGUACAGGGCCAAGUUCAAGUCGCAUAUGCUGUACUGUU | 0.502 |
| CAGUCUGAGCUGACUCCCUUCAGUGUGACCCCACUGUGUGGUUCCAUGGUCUUCGAUGUGGUUUUCAUUUACUGGUCAGGGGGCACCUCCCUGUAUUAGAAAUCUUGGAG | 0.373 |
| UUUUUUAAGCUUCGGUGGCAGCUCAGCCAUUAAGAGAGUUUACAUCCAUUUCCCCACUUAUUUAUAACCAGCCUUCCUUUCAGUCCUAGUGCCUGGAUCAAUGAGAUGGA | 0.5 |
| ACGAGUUUAAAAAUUAAGAGCGAUUAGCUGUUCACUUUGGUAACAGGUAGUUAAGUGUCACACAAGGUGUUGUUGCAAUGGCAUGACGGUGACCUGUUGACGUAACUAAG | 0.935 |
| CUGAUAAAAACACAGCUCCUUUAUUAUGCUGCUUUUCUUGUUCACUUUACACACUAAGUAAACACUUAUUGUCAGGUGCCUAGUCUUGAGUGAAUUGUUAGAUGUGCACU | 0.647 |
| UGCUUGUUCUUCUGAACUUGGGGACCAUGCCUCUUUGGGCUCUGCUUCCAGGAUGGUUUGGGAAGCAUAGCAGGGCACGGCUCGGCUCCUGAGAUCCAUCCCCUAGACUG | 1.41 |
| UACUUAAUUGGCUACUUUAUUUAACAAUGUUUUAGGGAUGUCGUUCAGUAUCUUUUCCAGUGUUUGCUACCUAAGAUCCCAUUGGGGUAAAAAUAUAACUCAGAUUUCAC | 0.459 |
| AGGUCACCCCACCCUAGAAUCCGCAUGGUUUCCCUGUGAUUGCACUCCACUGCCACCGUGGUGCCUGGCUUCAGCUCCCCUCCCCCAAUCCCUGCUAAGCCUCUACUCUG | 1.07 |

Set 2 — target: CCNA2, cyclin fold, Cln2 fusion (human); method: yeast growth competition, sequencing; matrix: yeast; notes: strong parent motif; baseline: not given; direction: higher = stronger binding
Parent: E2F1 docking peptide (human); PPVKRRLDLETDH; partner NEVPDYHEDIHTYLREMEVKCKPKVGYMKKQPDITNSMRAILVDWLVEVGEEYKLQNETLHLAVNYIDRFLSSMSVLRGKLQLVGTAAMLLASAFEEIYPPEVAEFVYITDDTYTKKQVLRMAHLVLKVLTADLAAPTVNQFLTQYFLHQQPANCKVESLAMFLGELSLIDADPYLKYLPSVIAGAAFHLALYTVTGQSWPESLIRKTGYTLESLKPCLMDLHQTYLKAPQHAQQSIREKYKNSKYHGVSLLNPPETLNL
| Variant | normalised enrichment score |
| --- | --- |
| E10P | 2.39 |
| L7T | 0.443 |
| H13L | 4.43 |
| P2W | 2.05 |
| P1E | 3.15 |
| D12G | 4.82 |
| R6V | 0.746 |

Set 3 — method: protein binding microarray; molecule type: double-stranded DNA, one strand shown; matrix: in vitro; tested at: not given; baseline: not given; direction: higher = stronger binding
Target: Histone acetyltransferase KAT6A, both winged helices, GST fusion (KAT6A, Homo sapiens, UniProt Q92794, residues 1-181)
Notes: 8-mer, flanks averaged, mean of 2 arrays, mostly near background
Construct (chain): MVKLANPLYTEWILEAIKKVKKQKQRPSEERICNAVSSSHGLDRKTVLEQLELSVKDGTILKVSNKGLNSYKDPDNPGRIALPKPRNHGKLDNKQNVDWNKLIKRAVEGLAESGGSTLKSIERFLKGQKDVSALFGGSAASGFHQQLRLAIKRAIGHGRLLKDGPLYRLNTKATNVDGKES
| Oligonucleotide | E-score |
| --- | --- |
| ATTTGGAG | -0.27 |
| AGAATATC | -0.0946 |
| ACCCGCAG | 0.169 |
| TAATACGA | -0.071 |
| CAAGCCAA | 0.00967 |
| ACGAATGG | -0.121 |
| CCTGGCAA | -0.172 |
| CCTCCCAG | -0.188 |
| AGGTGAAC | -0.0776 |
| ACATCTAG | -0.129 |
| GCTCCCAA | -0.22 |

Single results of other studies
| Molecule | target | assay | test system | setting | scale | measurement | value |
| --- | --- | --- | --- | --- | --- | --- | --- |
| PhoQ, residues 284 288 289 292 302 303 WVSSAF | PhoP, residues 12 14 15 18 19 VQALL (Escherichia coli, UniProt P23836) | Sort-seq, refers to: YFP reporter | E. coli | PhoQ-PhoP variant library, with: 10 µM Mg2+ | baseline: high Mg2+ state, higher = stronger signaling | fold induction | 11.1 |

Some of these lines once more (set 1):
| Oligonucleotide | RBNS enrichment (R) |
| --- | --- |
| ACGAGUUUAAAAAUUAAGAGCGAUUAGCUGUUCACUUUGGUAACAGGUAGUUAAGUGUCACACAAGGUGUUGUUGCAAUGGCAUGACGGUGACCUGUUGACGUAACUAAG | 0.935 |
| UGCUUGUUCUUCUGAACUUGGGGACCAUGCCUCUUUGGGCUCUGCUUCCAGGAUGGUUUGGGAAGCAUAGCAGGGCACGGCUCGGCUCCUGAGAUCCAUCCCCUAGACUG | 1.41 |
| UUUUUUAAGCUUCGGUGGCAGCUCAGCCAUUAAGAGAGUUUACAUCCAUUUCCCCACUUAUUUAUAACCAGCCUUCCUUUCAGUCCUAGUGCCUGGAUCAAUGAGAUGGA | 0.5 |
| UACUUAAUUGGCUACUUUAUUUAACAAUGUUUUAGGGAUGUCGUUCAGUAUCUUUUCCAGUGUUUGCUACCUAAGAUCCCAUUGGGGUAAAAAUAUAACUCAGAUUUCAC | 0.459 |
